Published values pooled from the literature.
Protocols differ between the studies behind these lines. “And” joins repeats or separate records; there may be more than shown. ± marks the error that the study gave.
Rhomboid protease AarA: Rhomboid protease AarA (Providencia stuartii, UniProt P46116)
Sequence of UniProt P46116 (whole entry, looked up): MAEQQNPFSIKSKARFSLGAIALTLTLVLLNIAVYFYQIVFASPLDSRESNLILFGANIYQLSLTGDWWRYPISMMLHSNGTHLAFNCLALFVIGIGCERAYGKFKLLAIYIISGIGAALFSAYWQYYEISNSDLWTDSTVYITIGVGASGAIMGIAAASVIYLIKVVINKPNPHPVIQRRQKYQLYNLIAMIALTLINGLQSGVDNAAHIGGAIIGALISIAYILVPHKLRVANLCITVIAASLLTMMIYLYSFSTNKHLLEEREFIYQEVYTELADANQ
Melanoma-associated antigen 4 MAGE homology domain: Melanoma-associated antigen 4, MAGE homology domain (Homo sapiens, UniProt P43358)
Sequence of UniProt P43358 (whole entry, looked up): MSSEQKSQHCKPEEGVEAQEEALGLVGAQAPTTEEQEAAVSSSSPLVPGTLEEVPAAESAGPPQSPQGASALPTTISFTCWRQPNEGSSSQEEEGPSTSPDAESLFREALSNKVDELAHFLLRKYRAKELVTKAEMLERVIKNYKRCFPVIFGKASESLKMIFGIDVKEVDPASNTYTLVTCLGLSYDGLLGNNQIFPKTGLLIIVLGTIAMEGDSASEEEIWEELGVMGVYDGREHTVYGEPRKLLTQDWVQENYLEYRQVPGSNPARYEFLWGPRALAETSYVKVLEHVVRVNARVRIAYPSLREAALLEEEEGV
PPARG: Peroxisome proliferator-activated receptor gamma (PPARG, Homo sapiens, UniProt P37231)
Sequence of UniProt P37231 (whole entry, looked up): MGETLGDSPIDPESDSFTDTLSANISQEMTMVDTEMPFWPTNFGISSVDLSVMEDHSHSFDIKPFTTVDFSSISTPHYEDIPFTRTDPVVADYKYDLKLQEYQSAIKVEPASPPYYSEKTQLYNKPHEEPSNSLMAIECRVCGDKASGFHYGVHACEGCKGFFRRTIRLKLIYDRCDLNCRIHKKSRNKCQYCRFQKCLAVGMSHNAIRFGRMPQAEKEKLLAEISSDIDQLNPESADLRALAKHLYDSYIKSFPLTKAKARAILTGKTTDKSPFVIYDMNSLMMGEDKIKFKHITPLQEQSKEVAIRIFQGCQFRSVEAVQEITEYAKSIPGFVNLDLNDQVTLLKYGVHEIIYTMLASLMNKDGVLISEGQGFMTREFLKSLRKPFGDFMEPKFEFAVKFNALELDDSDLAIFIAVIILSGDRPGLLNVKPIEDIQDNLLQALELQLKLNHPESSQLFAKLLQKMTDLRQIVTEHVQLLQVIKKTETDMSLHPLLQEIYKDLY
NSD2: Histone-lysine N-methyltransferase NSD2 (NSD2, Homo sapiens, UniProt O96028)
Sequence of UniProt O96028 (whole entry, looked up): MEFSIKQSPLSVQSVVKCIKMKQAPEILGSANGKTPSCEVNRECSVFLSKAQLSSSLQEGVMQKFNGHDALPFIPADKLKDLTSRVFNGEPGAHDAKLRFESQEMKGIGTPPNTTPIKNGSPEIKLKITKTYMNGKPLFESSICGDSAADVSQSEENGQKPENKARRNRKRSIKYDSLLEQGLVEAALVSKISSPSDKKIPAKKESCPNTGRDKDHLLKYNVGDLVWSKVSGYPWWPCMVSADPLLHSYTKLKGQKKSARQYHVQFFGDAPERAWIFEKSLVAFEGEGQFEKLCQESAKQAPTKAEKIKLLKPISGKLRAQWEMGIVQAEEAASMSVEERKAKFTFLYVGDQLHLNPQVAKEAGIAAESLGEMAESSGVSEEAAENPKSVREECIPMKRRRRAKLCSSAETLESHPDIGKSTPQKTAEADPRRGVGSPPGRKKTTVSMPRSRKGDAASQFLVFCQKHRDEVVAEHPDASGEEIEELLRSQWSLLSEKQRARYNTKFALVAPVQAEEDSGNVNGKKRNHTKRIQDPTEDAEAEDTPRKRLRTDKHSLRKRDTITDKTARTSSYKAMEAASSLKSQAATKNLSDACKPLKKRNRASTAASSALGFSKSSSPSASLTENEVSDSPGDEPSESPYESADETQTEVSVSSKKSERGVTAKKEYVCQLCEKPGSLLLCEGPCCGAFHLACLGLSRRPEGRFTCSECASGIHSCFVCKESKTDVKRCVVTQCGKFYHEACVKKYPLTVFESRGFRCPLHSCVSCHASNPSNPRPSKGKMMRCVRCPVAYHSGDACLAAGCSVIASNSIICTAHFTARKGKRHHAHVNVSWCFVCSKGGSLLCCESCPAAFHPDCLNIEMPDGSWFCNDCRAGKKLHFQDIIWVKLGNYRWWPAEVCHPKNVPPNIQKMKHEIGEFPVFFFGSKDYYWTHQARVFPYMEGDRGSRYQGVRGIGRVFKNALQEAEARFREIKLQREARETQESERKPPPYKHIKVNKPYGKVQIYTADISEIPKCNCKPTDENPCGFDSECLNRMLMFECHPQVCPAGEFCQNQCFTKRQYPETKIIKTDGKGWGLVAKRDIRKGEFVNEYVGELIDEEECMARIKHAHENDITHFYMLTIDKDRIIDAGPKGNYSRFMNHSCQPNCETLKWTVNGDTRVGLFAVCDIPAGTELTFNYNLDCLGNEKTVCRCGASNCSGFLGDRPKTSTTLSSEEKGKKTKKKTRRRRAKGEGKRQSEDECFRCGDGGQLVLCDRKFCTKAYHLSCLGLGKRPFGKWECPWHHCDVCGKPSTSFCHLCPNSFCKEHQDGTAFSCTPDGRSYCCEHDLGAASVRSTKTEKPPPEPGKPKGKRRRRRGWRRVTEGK
PPARG ligand-binding domain: Peroxisome proliferator-activated receptor gamma, ligand-binding domain (PPARG, Homo sapiens, UniProt P37231)
ERBB4: Receptor tyrosine-protein kinase erbB-4 (ERBB4, Homo sapiens, UniProt Q15303)
HDAC1: Histone deacetylase 1 (HDAC1, Homo sapiens, UniProt Q13547)
Sequence of UniProt P51681 (whole entry, unmodified, looked up): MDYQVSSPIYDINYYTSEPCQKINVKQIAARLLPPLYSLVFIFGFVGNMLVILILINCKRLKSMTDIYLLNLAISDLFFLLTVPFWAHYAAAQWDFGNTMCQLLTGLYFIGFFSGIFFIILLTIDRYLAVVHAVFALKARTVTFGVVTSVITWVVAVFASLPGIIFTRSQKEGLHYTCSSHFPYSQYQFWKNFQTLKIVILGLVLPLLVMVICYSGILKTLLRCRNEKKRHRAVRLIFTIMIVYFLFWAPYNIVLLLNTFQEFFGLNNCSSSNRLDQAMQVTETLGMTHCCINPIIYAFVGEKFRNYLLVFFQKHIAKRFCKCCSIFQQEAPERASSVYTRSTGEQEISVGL
Sequence of UniProt Q13547 (whole entry, looked up): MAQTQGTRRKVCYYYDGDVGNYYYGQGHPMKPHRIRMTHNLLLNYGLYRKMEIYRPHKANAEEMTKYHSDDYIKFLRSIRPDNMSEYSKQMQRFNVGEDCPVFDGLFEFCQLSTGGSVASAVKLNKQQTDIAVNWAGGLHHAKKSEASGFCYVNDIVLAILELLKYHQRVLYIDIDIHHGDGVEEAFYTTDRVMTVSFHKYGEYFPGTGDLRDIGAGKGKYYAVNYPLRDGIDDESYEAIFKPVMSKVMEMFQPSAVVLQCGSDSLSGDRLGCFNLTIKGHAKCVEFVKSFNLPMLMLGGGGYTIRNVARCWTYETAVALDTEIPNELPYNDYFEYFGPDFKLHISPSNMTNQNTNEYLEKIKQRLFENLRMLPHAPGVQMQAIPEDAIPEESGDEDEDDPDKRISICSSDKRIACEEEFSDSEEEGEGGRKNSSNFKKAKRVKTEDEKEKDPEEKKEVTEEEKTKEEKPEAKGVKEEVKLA
Sequence of UniProt Q12809 (whole entry, looked up): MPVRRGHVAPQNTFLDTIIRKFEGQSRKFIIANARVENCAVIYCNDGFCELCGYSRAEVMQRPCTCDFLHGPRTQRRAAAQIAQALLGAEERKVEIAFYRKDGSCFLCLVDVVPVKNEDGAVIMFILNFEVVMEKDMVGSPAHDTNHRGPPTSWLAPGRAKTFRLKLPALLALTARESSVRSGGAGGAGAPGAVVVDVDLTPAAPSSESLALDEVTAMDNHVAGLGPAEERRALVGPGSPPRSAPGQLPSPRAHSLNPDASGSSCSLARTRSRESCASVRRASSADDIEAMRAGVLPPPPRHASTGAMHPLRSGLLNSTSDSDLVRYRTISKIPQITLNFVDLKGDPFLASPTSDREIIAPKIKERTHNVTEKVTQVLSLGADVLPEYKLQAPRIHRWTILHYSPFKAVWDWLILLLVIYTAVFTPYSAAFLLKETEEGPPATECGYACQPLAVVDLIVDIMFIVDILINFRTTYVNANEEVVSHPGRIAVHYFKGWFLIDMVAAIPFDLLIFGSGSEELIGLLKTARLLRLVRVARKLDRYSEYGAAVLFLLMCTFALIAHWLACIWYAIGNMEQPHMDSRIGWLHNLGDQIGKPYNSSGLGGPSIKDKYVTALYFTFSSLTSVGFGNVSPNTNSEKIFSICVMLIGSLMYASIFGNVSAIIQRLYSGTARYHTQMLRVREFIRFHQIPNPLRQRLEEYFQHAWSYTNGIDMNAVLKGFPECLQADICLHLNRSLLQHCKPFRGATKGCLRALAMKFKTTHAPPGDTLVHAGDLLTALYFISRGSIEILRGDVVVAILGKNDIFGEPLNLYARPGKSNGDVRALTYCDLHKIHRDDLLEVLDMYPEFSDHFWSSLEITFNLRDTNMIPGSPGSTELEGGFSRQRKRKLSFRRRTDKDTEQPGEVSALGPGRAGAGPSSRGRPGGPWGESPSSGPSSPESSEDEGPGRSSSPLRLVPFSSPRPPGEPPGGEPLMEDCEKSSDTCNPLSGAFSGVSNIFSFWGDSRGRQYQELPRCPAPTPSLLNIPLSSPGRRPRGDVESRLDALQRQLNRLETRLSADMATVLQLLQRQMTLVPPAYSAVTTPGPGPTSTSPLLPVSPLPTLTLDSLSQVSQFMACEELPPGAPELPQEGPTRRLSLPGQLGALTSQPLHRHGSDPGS
Sequence of UniProt P07550 (whole entry, looked up): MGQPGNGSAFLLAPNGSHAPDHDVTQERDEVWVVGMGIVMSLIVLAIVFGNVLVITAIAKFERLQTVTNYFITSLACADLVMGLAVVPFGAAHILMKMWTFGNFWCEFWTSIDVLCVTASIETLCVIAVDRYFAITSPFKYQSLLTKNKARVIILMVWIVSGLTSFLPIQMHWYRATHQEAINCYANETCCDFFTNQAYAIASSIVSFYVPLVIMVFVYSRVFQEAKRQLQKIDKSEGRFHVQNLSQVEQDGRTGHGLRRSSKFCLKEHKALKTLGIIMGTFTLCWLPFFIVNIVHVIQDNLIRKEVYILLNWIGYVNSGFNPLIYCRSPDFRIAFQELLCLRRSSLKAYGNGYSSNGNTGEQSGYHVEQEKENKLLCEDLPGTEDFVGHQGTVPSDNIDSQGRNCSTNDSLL

Compound | target | test | system | setting | IC50
CC(C)Oc1cccc(NC(=O)C(C(F)(F)F)C(F)(F)F)c1 | Rhomboid protease AarA | enzyme activity, inhibitor, fluorescence |  |  | 10 µM
Cn1cc2c(n1)CN(C(=O)Nc1nc(-c3ccc(F)cc3)ccc1N)C2 | Lysine-specific histone demethylase 1A, with CoREST (KDM1A, Homo sapiens, UniProt O60341) | demethylase activity, inhibitor |  | LSD1-CoREST complex | > 150 µM
CC[C@H](C)[C@@H]1NC(=O)[C@H](Cc2ccc(O)cc2)NC(=O)CSC[C@@H](C(N)=O)NC(=O)[C@H](CC(N)=O)NC(=O)[C@H](Cc2c[nH]cn2)NC(=O)[C@H](Cc2ccc(O)cc2)NC(=O)[C@H](CC(=O)O)NC(=O)[C@H](Cc2ccccc2)NC(=O)[C@H](CC(C)C)NC(=O)[C@H](CCCNC(=N)N)NC1=O | Melanoma-associated antigen 4 MAGE homology domain | binding, inhibitor, TR-FRET displacement |  | together with: Alexa647-MTP-1 | 0.0174 ± 0.0027 µM
Cc1c(Cc2ccc(Cl)c(OC(C)C(=O)O)c2)c2ccc(C(=O)NC(C)c3cc(F)cc(C(C)(C)C)c3)cc2n1C (stereo not drawn) | PPARG | ligand displacement, TR-FRET |  |  | 0.014 µM
CC[C@H](C)[C@@H]1NC(=O)[C@H](Cc2ccc(O)cc2)NC(=O)CSC[C@@H](C(N)=O)NC(=O)[C@H](CC(N)=O)NC(=O)[C@H](Cc2c[nH]cn2)NC(=O)[C@H](Cc2ccc(O)cc2)NC(=O)[C@H](CC(=O)O)NC(=O)[C@H](CC(C)C)NC(=O)[C@H](CC(C)C)NC(=O)[C@H](CCCNC(=N)N)NC1=O | Melanoma-associated antigen 4 MAGE homology domain | binding, inhibitor, TR-FRET displacement |  | together with: Alexa647-MTP-1 | 0.084 ± 0.0064 µM
COc1cc2cc(CN(Cc3nnnn3Cc3ccco3)C3CCCCC3)c(=O)[nH]c2cc1OC | Cruzipain (Trypanosoma cruzi, UniProt P25779) | enzyme activity, inhibitor |  |  | 14 µM
Fc1ccc(Nc2nc(NC3CCCCC3)c3ccccc3n2)cc1F | ADRB2 (Homo sapiens, UniProt P07550) | cAMP production, antagonist, GloSensor |  | together with: isoproterenol 1 µM | > 50 µM
O=Cc1ccc(C(=O)N2CCc3cc(NC(=O)c4ccc(CN(C(=O)c5ccc6c(c5)OCC(=O)N6)C5CC5)cc4)ccc3C2)cc1 | NSD2 | ligand displacement, TR-FRET |  |  | 0.159 µM
Cc1c(Cc2cccc(OCC(=O)O)c2)c2ccc(C(=O)N[C@@H](C)c3cccc(C(C)(C)C)c3)cc2n1C | PPARG ligand-binding domain | reporter gene, luciferase reporter | HEK293T, Gal4-PPARγ LBD |  | 37.2 µM
Cc1cc(C)nc(NC(=S)N2CCN(c3ccc(C(F)(F)F)cn3)CC2)c1 | GAPDH (Homo sapiens, UniProt P04406) | enzyme activity, inhibitor |  |  | > 100 µM
CCOc1cccc(NC(=O)C(C(F)(F)F)C(F)(F)F)c1 | Rhomboid protease AarA | enzyme activity, inhibitor, fluorescence |  |  | 11 µM
CN1CCC[C@@H]1C(=O)N[C@@H](Cc1ccc(-c2ccccc2)cc1)B(O)O | Proteasome subunit beta type-9 / Proteasome subunit beta type-10 (Homo sapiens, UniProt P28065+P40306) | β1i activity, inhibitor |  | immunoproteasome, together with: Ac-PAL-AMC | > 10 µM
CC(C)(C)c1ccc(NC(=O)C(C(F)(F)F)C(F)(F)F)cc1 | Rhomboid protease AarA | enzyme activity, inhibitor, fluorescence |  |  | 6.5 µM
CCCSc1nc(Sc2nccs2)c2nnn(CCO)c2n1 | KDM1A (Homo sapiens, UniProt O60341) | enzyme activity, inhibitor, fluorescence |  |  | 1.03 µM
CC1(F)CN(C(=O)Cn2c(=O)c(C(=O)NCc3ccc(Cl)cc3)cc3nc(N4CCN(CCN)C4=O)cnc32)C1 | KCNH2 (Homo sapiens, UniProt Q12809) | ion current, automated patch clamp |  | retest | > 40 µM
Cc1c(Cc2cccc(OC(C)(C)C(=O)O)c2)c2ccc(C(=O)N[C@@H](C)c3cccc(C(C)(C)C)c3)cc2n1CC(C)C | PPARG | ligand displacement, TR-FRET |  |  | 0.00207 µM
Cc1nc(Nc2ncc(C(=O)Nc3c(C)cccc3Cl)s2)cc(N2CCN(CCNC(=O)c3ccc(C(=O)c4ccc(OCC(=O)NCCOCCOCCCCCCCl)cc4)cc3)CC2)n1 | SRC (Gallus gallus, UniProt P00523) |  |  |  | < 0.004 µM
CCn1c(C)c(Cc2ccc(Cl)c(O[C@H](C)C(=O)O)c2)c2ccc(C(=O)N[C@@H](C)c3ccc(C(C)(C)C)cc3)cc21 | PPARG | ligand displacement, TR-FRET |  |  | 0.00717 µM
O=C(COc1ccc2ccccc2c1)NCc1ccc(OP(=O)(O)O)cc1 | Signal transducer and activator of transcription 5B, SH2 (STAT5B, Homo sapiens, UniProt P51692) | ligand displacement, FP |  |  | 102 µM
COc1c(Cl)cccc1Nc1c(-c2ccncc2OC[C@@H]2COCCO2)[nH]c2c1C(=O)NCC2 | ERBB4 | kinase activity, inhibitor, TR-FRET |  | together with: ATP 2 mM | 0.014 µM
CC(C)c1ccccc1[C@@H]1CCCN1C1CC2(CCN(c3ccc(C(=O)NS(=O)(=O)c4ccc(NC[C@H]5CC[C@](C)(O)CC5)c([N+](=O)[O-])c4)c(Oc4cnc5[nH]ccc5c4)c3)CC2)C1 | MCL1 (Homo sapiens, UniProt Q07820) | binding, inhibitor, TR-FRET competition |  |  | > 10 µM
Cc1c(Cc2cccc(OC(C(=O)O)C3CC3)c2)c2ccc(C(=O)NC(C)c3cccc(C(C)(C)C)c3)cc2n1C (mixture of isomers) | PPARG ligand-binding domain | reporter gene, luciferase reporter | HEK293T, Gal4-PPARγ LBD |  | 23.9 µM
Cc1nn(-c2cccc(N)c2)c(=O)c2cnc(Nc3ccc(N4CCNCC4)cc3)nc12 | ERBB4 | enzyme activity, inhibitor |  |  | > 10 µM

Compound | target | test | system | setting | IC50
Nc1nonc1-c1nnc2c(n1)-c1ccccc1C2=O | NSD2 | enzyme activity, inhibitor, AlphaLISA |  |  | 0.11 µM
O=C(Nc1ccccc1OCc1ccccc1)C(C(F)(F)F)C(F)(F)F | Rhomboid protease AarA | enzyme activity, inhibitor, fluorescence |  |  | 2 µM
C[C@@H]1Cc2c([nH]c3ccccc23)[C@@H](c2c(F)cc(/C=C/C(=O)O)cc2F)N1C12CC(C1)C2 | PGR (Homo sapiens, UniProt P06401) | PR receptor activity, agonist, cell-based |  |  | > 10 µM
COC(=O)CCCCCC(=O)Nc1ccc(Nc2ncc(F)c(-c3cc(F)c4nc(C)n(C(C)C)c4c3)n2)cc1 | HDAC1 | enzyme activity, inhibitor |  |  | > 1 µM
CC[C@H](C)[C@@H]1NC(=O)[C@H](Cc2ccc(O)cc2)NC(=O)CCSCCCSCCNC(=O)[C@H](Cc2c[nH]cn2)NC(=O)[C@H](Cc2ccc(O)cc2)NC(=O)[C@H](CC(=O)O)NC(=O)[C@H](Cc2ccc(O)cc2)NC(=O)[C@H](CC(C)C)NC(=O)[C@H](CCCNC(=N)N)NC1=O | Melanoma-associated antigen 4 MAGE homology domain | binding, inhibitor, TR-FRET displacement |  | together with: Alexa647-MTP-1 | 0.0192 ± 0.0018 µM
O=C1C(Cl)=C(NCCN2CCOCC2)C(=O)c2ncccc21 | KMT5A (Homo sapiens, UniProt Q9NQR1, C311S) | enzyme activity, radiometric filter |  | 8 h, 1 µM enzyme C270S variant, together with: 0.75 µM SAM, 1.5 µM H4K20 peptide | 2.2 µM
Cc1ccc(CNC(=O)[C@@H](NC(=O)[C@H](CCc2ccccc2)NC(=O)[C@H](CCc2ccccc2)N(C)C)C(C)C)cc1 | Psmb1/Psmb8 (Rattus norvegicus, UniProt P18421+P28064) | enzyme activity, inhibitor |  | together with: Ac-ANW-aminocoumarin, PA28α 12 nM | 2.15 µM
CC(C)(C)c1ccc(C2CC(=O)N2S(=O)(=O)c2cccc(Cl)c2)cc1 (stereo not drawn) | Rhomboid protease AarA | enzyme activity, inhibitor, fluorescence |  |  | 40 µM
O=C(CCNC(=O)CNC(=O)CC(c1ccccc1)(c1ccccc1)c1ccccc1)NC[C@@H]1CCCN(Cc2ccc3cc(F)ccc3c2)C1 | CHRM4 (Homo sapiens, UniProt P08173) | ligand displacement, radioligand |  | cell membranes | > 30 µM
COC(=O)CCCCCCNC(=O)c1ccc(Nc2ncc(F)c(-c3cc(F)c4nc(C)n(C(C)C)c4c3)n2)cc1 | HDAC1 | enzyme activity, inhibitor |  |  | > 1 µM
Cc1cc(NC(=O)C(C(F)(F)F)C(F)(F)F)ccn1 | Rhomboid protease AarA | enzyme activity, inhibitor, fluorescence |  |  | 56 µM
COC(=O)CCCC(=O)Nc1ccc(Nc2ncc(F)c(-c3cc(F)c4nc(C)n(C(C)C)c4c3)n2)cc1 | HDAC1 | enzyme activity, inhibitor |  |  | > 1 µM
COc1ccc(C(=O)Nc2ccc(Nc3cc(C)nc(N4CCCC4)n3)cc2)cc1 | Beta sliding clamp (Escherichia coli, UniProt P0A988) |  |  |  | 58.9 ± 2.5 µM
Cc1c(Cc2ccc(OC(C)(C)C(=O)O)cc2)c2ccc(C(=O)N[C@@H](C)c3cccc(C(C)C)c3)cc2n1C | PPARG ligand-binding domain | reporter gene, luciferase reporter | HEK293T, Gal4-PPARγ LBD |  | 1.64 µM
CCCCCC(=O)Nc1ccc(Nc2ncc(F)c(-c3cc(F)c4nc(C)n(C(C)C)c4c3)n2)cc1 | HDAC1 | enzyme activity, inhibitor |  |  | > 1 µM
Cc1nnc(-c2ccc(CC(=O)NC(CCN3C4CCC3CC(n3c(C)nnc3C(C)C)C4)c3ccccc3)cc2)nn1 (stereo not drawn) | CCR5 (Homo sapiens, UniProt P51681, Y184K) | calcium mobilisation, inhibitor | HEK293T expressing CCR5 | together with: PSC-RANTES | 0.00154 µM and 0.002 µM and 0.00158 µM
Cc1ccc2nc(C)n(/N=C/c3ccc(C(=O)O)cc3)c(=O)c2c1 | collagenase | enzyme activity, inhibitor |  | together with: casein substrate | 18.5 ± 1.56 µg/mL
Cc1c(Cc2cc(Cl)cc(OC(C)C(=O)O)c2)c2ccc(C(=O)NC(C)c3ccc(C(C)(C)C)cc3)cc2n1C (stereo not drawn) | PPARG | ligand displacement, TR-FRET |  |  | 0.018 µM
O=C(NCc1cccc(-n2cccn2)c1)C(C(F)(F)F)C(F)(F)F | Rhomboid protease AarA | enzyme activity, inhibitor, fluorescence |  |  | 11 µM
Clc1ccc(CC2CON=C(c3cc(Cl)nnc3Oc3cccc(C4CC4)c3)N2)c(Cl)c1 (stereo not drawn) | serine palmitoyltransferase (Zymoseptoria tritici, UniProt F9X349+F9XMN6) |  |  |  | 0.023 ± 0.005 µM
Cc1c(Cc2cccc(OC(C)(C)C(=O)O)c2)c2ccc(C(=O)N[C@@H](C)c3cccc(OC(F)(F)F)c3)cc2n1C | PPARG ligand-binding domain | reporter gene, luciferase reporter | HEK293T, Gal4-PPARγ LBD |  | 1.53 µM
O=C(NCC1CC1)c1ccccc1NC(=O)C(C(F)(F)F)C(F)(F)F | Rhomboid protease AarA | enzyme activity, inhibitor, fluorescence |  |  | 6.7 µM

Some of these lines once more:
Compound | target | test | system | setting | IC50
CCCCCC(=O)Nc1ccc(Nc2ncc(F)c(-c3cc(F)c4nc(C)n(C(C)C)c4c3)n2)cc1 | HDAC1 | enzyme activity, inhibitor |  |  | > 1 µM
Cc1nnc(-c2ccc(CC(=O)NC(CCN3C4CCC3CC(n3c(C)nnc3C(C)C)C4)c3ccccc3)cc2)nn1 (stereo not drawn) | CCR5 (Homo sapiens, UniProt P51681, Y184K) | calcium mobilisation, inhibitor | HEK293T expressing CCR5 | together with: PSC-RANTES | 0.00154 µM and 0.002 µM and 0.00158 µM
Cc1ccc2nc(C)n(/N=C/c3ccc(C(=O)O)cc3)c(=O)c2c1 | collagenase | enzyme activity, inhibitor |  | together with: casein substrate | 18.5 ± 1.56 µg/mL
Cc1c(Cc2cc(Cl)cc(OC(C)C(=O)O)c2)c2ccc(C(=O)NC(C)c3ccc(C(C)(C)C)cc3)cc2n1C (stereo not drawn) | PPARG | ligand displacement, TR-FRET |  |  | 0.018 µM
O=C(NCc1cccc(-n2cccn2)c1)C(C(F)(F)F)C(F)(F)F | Rhomboid protease AarA | enzyme activity, inhibitor, fluorescence |  |  | 11 µM
Clc1ccc(CC2CON=C(c3cc(Cl)nnc3Oc3cccc(C4CC4)c3)N2)c(Cl)c1 (stereo not drawn) | serine palmitoyltransferase (Zymoseptoria tritici, UniProt F9X349+F9XMN6) |  |  |  | 0.023 ± 0.005 µM
